Results gathered from unrelated publications.
Effect on: cell growth or viability

| Structure (SMILES) | cell line | assay | setting | measurement | value |
| --- | --- | --- | --- | --- | --- |
| O=C(Nc1ccc(Oc2nnc(-c3ccc(Cl)cc3)c3ccccc23)cc1)c1ccccc1 | HepG2 | MTT | 0.625 µM, 24 h | viability | 12.1% |
| CCCCC(=O)Nc1ccc(-c2ccc3ncn(CC#N)c(=O)c3c2)cn1 | HCC827 | CCK-8 | 72 h | IC50 | > 10 µM |
| COc1ccc(NC(=O)c2c(Nc3ccccc3)sc(C(=O)NN=Cc3cc(OC)c(OC)c(OC)c3)c2NC(C)=O)cc1 | HCT-116 | SRB | 10 nM, 48 h | viability | 95.6% |
| CCCCC(=O)Nc1ccc(-c2ccc3ncn(C4CC4)c(=O)c3c2)cn1 | HCC827 | CCK-8 | 72 h | IC50 | 1.69 µM |
| COc1ccc(NC(=O)c2c(Nc3ccccc3)sc(C#N)c2NC(=O)CNc2ccccc2)cc1 | HCT-116 | SRB | 1 nM, 48 h | viability | 102% |
| CCCCC(=O)Nc1ccc(-c2cnc3ncn(CCC)c(=O)c3c2)cn1 | HCC827 | CCK-8 | 72 h | IC50 | > 10 µM |
| CC(=NNC(=S)Nc1ccccc1)c1ccc(Nc2nnc(-c3ccc(Cl)cc3)c3ccccc23)cc1 | HepG2 | MTT | 0.625 µM | cell death | 20.5% |
| CNC(=O)c1cc(Oc2ccc(NC(=O)Nc3ccc(Cl)c(C(F)(F)F)c3)cc2)ccn1 | HepG2 | SRB | 1 nM, 48 h | viability | 100% |
| CC[C@@H](C)Nc1ccnc(Nc2cccc(-c3cccnc3)c2)n1 | BJ | ATP luminescence | 72 h | EC50 | > 6 µM |
| O=C(Nc1ccccc1/N=c1\cc(-c2ccc3c(c2)OCO3)oc2ccccc12)N1CCOCC1 | MOLM-13 | CCK-8 | 1 µM | inhibition | -0.24% |
| CCCCC(=O)Nc1cc(C)c(-c2ccc3ncn(CCC)c(=O)c3c2)cn1 | HCC827 | CCK-8 | 72 h | IC50 | 2.58 µM |
| c1cncc(Nc2nccc(NC3CCCCC3)n2)c1 | BJ | ATP luminescence | 72 h | EC50 | > 10 µM |
| CC(=NNC(=O)c1ccc(N)cc1)c1ccc(Nc2nnc(-c3ccc(Cl)cc3)c3ccccc23)cc1 | HepG2 | MTT | 0.312 µM | cell death | 1.77% |
| COCCC(=O)Nc1ccccc1/N=c1\cc(-c2ccc3nc(N)oc3c2)oc2ccccc12 | NCI-H1975 | CCK-8 | 1 µM | inhibition | 2.94% |
| CC(C)Nc1ccnc(Nc2cccc(-c3nccs3)c2)n1 | BJ | ATP luminescence | 72 h | EC50 | > 21 µM |
| CC(=O)Nc1ccc(Oc2nnc(-c3ccc(Cl)cc3)c3ccccc23)cc1 | HepG2 | MTT | 0.312 µM, 24 h | viability | 35.2% |
| CCCCn1cnc2ccc(-c3ccc(NC(=O)C4CCCC4)nc3)cc2c1=O | HCC827 | CCK-8 | 72 h | IC50 | 3.63 µM |
| c1ccc(-c2cccc(Nc3nccc(NC4CCCCC4)n3)c2)nc1 | BJ | ATP luminescence | 72 h | EC50 | 12.1 µM |
| CC(=NNC(=O)c1ccncc1)c1ccc(Nc2nnc(-c3ccc(Cl)cc3)c3ccccc23)cc1 | HepG2 | MTT | 0.312 µM, 24 h | viability | 35.3% |
| CCC(=CCc1c(O)cc2c(c1O)C(=O)CC(c1ccc(O)cc1)O2)CC (stereo in doubt) | HeLa | MTT | 12.5 µM, 48 h | inhibition | 19.9% |
| COc1cccc(-c2cccc(Nc3nccc(NC(C)C)n3)c2)c1 | BJ | ATP luminescence | 72 h | EC50 | 13.9 µM |
| CC(=NNC(=O)c1ccccc1O)c1ccc(Nc2nnc(-c3ccc(Cl)cc3)c3ccccc23)cc1 | HepG2 | MTT | 2.5 µM, 24 h | viability | 37.9% |
| CCCC(=O)Nc1ccc(-c2ccc3ncn(Cc4ccccc4)c(=O)c3c2)cn1 | HCC827 | CCK-8 | 72 h | IC50 | > 10 µM |
| c1ccc(-c2ccc(Nc3nccc(NC4CCCCC4)n3)cc2)nc1 | BJ | ATP luminescence | 72 h | EC50 | 9.18 µM |
| O=C(Nc1ccccc1)Nc1ccc(Oc2nnc(-c3ccc(Cl)cc3)c3ccccc23)cc1 | HepG2 | MTT | 78 nM | cell death | 44.1% |
| CC(C)Nc1ccnc(Nc2cccc(C(C)(C)C)c2)n1 | BJ | ATP luminescence | 72 h | EC50 | > 14 µM |
| CCCCn1cnc2ccc(-c3ccc(NC(=O)Nc4ccc(CC)cc4)nc3)cc2c1=O | NCI-H1975 | CCK-8 | 72 h | IC50 | > 10 µM |
| CC(C)Nc1ccnc(Nc2cccc(-n3ccnc3)c2)n1 | BJ | ATP luminescence | 72 h | EC50 | > 16 µM |
| CCCCn1cnc2ccc(-c3ccc(NC(=O)NCCc4ccccc4)nc3)cc2c1=O | HCC827 | CCK-8 | 72 h | IC50 | > 10 µM |

For quick reference, copied from above:
| Structure (SMILES) | cell line | assay | setting | measurement | value |
| --- | --- | --- | --- | --- | --- |
| CCCCn1cnc2ccc(-c3ccc(NC(=O)Nc4ccc(CC)cc4)nc3)cc2c1=O | NCI-H1975 | CCK-8 | 72 h | IC50 | > 10 µM |
| CC(C)Nc1ccnc(Nc2cccc(-n3ccnc3)c2)n1 | BJ | ATP luminescence | 72 h | EC50 | > 16 µM |
| O=C(Nc1ccccc1)Nc1ccc(Oc2nnc(-c3ccc(Cl)cc3)c3ccccc23)cc1 | HepG2 | MTT | 78 nM | cell death | 44.1% |
